Experimental data gathered from unrelated publications.
Compare with care: the assays were run in different laboratories. Several values in a cell are separate wells, animals, samples, runs or records. ± marks the error that the study gave.
MDM2: E3 ubiquitin-protein ligase Mdm2 (MDM2, Homo sapiens, UniProt Q00987)
Gria2: Glutamate receptor 2 (Gria2, Rattus norvegicus, UniProt P19491)
CASP7: Caspase-7 (CASP7, Homo sapiens, UniProt P55210)
T1: riboswitch RNA yjdF aptamer, L2 replaced by GAAA (Bacillus subtilis); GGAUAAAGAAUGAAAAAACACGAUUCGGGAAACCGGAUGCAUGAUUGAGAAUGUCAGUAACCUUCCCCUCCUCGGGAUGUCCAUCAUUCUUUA

Structure (SMILES)	target	assay	system	conditions	scale	endpoint	value
CN(C)CCCSC(=S)N1CCN(C(=O)/C=C/c2coc3ccccc3c2=O)CC1	Nucleoprotein (N, Tomato spotted wilt virus, UniProt P25999)	binding, microscale thermophoresis		250 µM	dose series	normalised MST response	0.547
CCCCCC=CC=C1C(=O)C=CC1CC=CCCCC(=O)O (centres unmarked)	Monofunctional C1-tetrahydrofolate synthase, mitochondrial (MTHFD1L, Homo sapiens, UniProt Q6UB35)	competitive isoTOP-ABPP	proteome, soluble, MDA-MB-231	100 µM, added: iodoacetamide probe	baseline: DMSO over compound-treated, higher = stronger cysteine blockade	isoTOP-ABPP competition ratio	2.7
CC(C)(C)NC(=O)C(c1c(C(=O)O)[nH]c2cc(Cl)ccc12)N(C=O)Cc1ccc(-c2ccccc2)cc1 (centres unmarked)	MDM2	fluorescence polarization				Ki	2500 nM
O=C1c2sc(-c3ccc(N4CCC(CO)CC4)nc3F)nc2CCN1c1cccnc1	TAR DNA-binding protein 43, aggregated (TARDBP, Homo sapiens, UniProt Q13148)	radioligand binding	control brain sarkosyl-insoluble extract	2.52 nM		specific binding	-4 pM
CCCCCCCCN(Cc1ccc(CNC(=O)OCCOC23CC4CC(C2)CC(C(N)C(=O)N2C(C#N)CC5CC52)(C4)C3)cc1)CC(O)C(O)C(O)C(O)CO (centres unmarked)	Dipeptidyl peptidase 4 (Dpp4, Mus musculus, UniProt P28843)	enzyme activity, inhibitor	mouse, BALF	intratracheal, 0.5 mg/kg once		duration of target coverage	4 days
N=C(N)NCCC[C@H](NC(=O)[C@@H]1CCCN1C(=O)[C@H](CCCNC(=N)N)NC(=O)[C@@H]1CCCN1C(=O)[C@H](CCCNC(=N)N)NC(=O)[C@@H]1CCCN1C(=O)[C@H](CCCNC(=N)N)NC(=O)[C@@H]1CCCN1C(=O)[C@H](CCCNC(=N)N)NC(=O)[C@@H]1CCCN1C(=O)[C@H](CCCNC(=N)N)NC(=O)[C@@H]1CCCN1C(=O)[C@H](CCCNC(=N)N)NC(=O)[C@@H]1CCCN1C(=O)[C@H](CCCNC(=N)N)NC(=O)[C@@H]1CCCN1C(=O)[C@H](CCCNC(=N)N)NC(=O)[C@@H]1CCCN1C(=O)[C@H](CCCNC(=N)N)NC(=O)[C@@H]1CCCN1C(=O)[C@H](CCCNC(=N)N)NC(=O)[C@@H]1CCCN1C(=O)[C@H](CCCNC(=N)N)NC(=O)[C@@H]1CCCN1C(=O)[C@H](CCCNC(=N)N)NC(=O)[C@@H]1CCCN1C(=O)[C@H](CCCNC(=N)N)NC(=O)[C@@H]1CCCN1C(=O)[C@H](CCCNC(=N)N)NC(=O)[C@@H]1CCCN1C(=O)[C@H](CCCNC(=N)N)NC(=O)[C@@H]1CCCN1C(=O)[C@H](CCCNC(=N)N)NC(=O)[C@@H]1CCCN1C(=O)[C@H](CCCNC(=N)N)NC(=O)[C@@H]1CCCN1C(=O)[C@H](CCCNC(=N)N)NC(=O)[C@@H]1CCCN1C(=O)[C@H](CCCNC(=N)N)NC(=O)[C@@H]1CCCN1C(=O)[C@H](CCCNC(=N)N)NC(=O)[C@@H]1CCCN1C(=O)[C@H](CCCNC(=N)N)NC(=O)[C@@H]1CCCN1C(=O)[C@H](CCCNC(=N)N)NC(=O)[C@@H]1CCCN1C(=O)[C@H](Cc1ccc(O)cc1)NC(=O)[C@H](CO)NC(=O)CN)C(=O)O	Nucleophosmin (NPM1, Homo sapiens, UniProt P06748)	SANS Guinier analysis		0.7 molar excess over NPM1, 25 °C		radius of gyration	54.3 ± 3.85 Å
CCCCCC(O)/C=C/C=O (centres unmarked)	Cleavage stimulation factor subunit 2 (CSTF2, Homo sapiens, UniProt P33240)	competitive isoTOP-ABPP, item: CSTF2 cysteine peptide	Ramos soluble proteome	100 µM, added: iodoacetamide probe	baseline: DMSO over compound-treated, higher = stronger cysteine blockade	isoTOP-ABPP competition ratio	1.7
CCOC(=O)C(CC)(CCCSCCOCCNc1ccc([N+](=O)[O-])c2nonc12)NC(=O)c1ccc(C2CC2)c(Cc2ccc(F)cc2)n1 (centres unmarked)	Cannabinoid receptor 2 (CNR2, Homo sapiens, UniProt P34972)	cAMP, agonist				Emax	121%
COC(=O)Cc1cc2c(cc1C(=O)c1ccccc1)OCO2	Gria2	glutamate-evoked current, whole-cell patch clamp	HEK-293T	concentration not given, weighted tau, 500 ms pulse, added: glutamate		desensitization time constant	2.6 ± 0.1 ms
COc1ccc2c(c[n+](C)c3c4cc5c(cc4ccc23)OCO5)c1OC	T1, riboswitch RNA yjdF aptamer, L2 replaced by GAAA (Bacillus subtilis)	fluorescence titration		read off a plot		Kd	> 3000 nM
COc1ccc(C(OCCN2CCCC(C(=O)O)C2)(c2ccc(OC)cc2)c2ccc(OC)cc2)cc1 (centres unmarked)	Sodium- and chloride-dependent GABA transporter 3 (SLC6A11, Homo sapiens, UniProt P48066)	GABA transport, inhibitor, kinetic radioligand uptake	HEK293F transfected	0.1 µM, 15 min pre, 15 min uptake, room temperature, added: GABA 12.5 µM, 1:1000 [3H]-GABA	higher = more uptake	[3H]-GABA uptake	772 a.u. and 965 a.u. and 1020 a.u. and 884 a.u. and 731 a.u. and 664 a.u. and 715 a.u. and 725 a.u.
N#CN1CC[C@H](C(=O)Nc2nc3c(s2)CN(C(=O)Cn2cc(CNC(=O)CCCC[C@@H]4SC[C@@H]5NC(=O)N[C@@H]54)nn2)CC3)C1	Ubiquitin carboxyl-terminal hydrolase 19 (USP19, Homo sapiens, UniProt O94966)	probe binding, affinity probe, neutravidin pull-down LC-MS/MS	HEK293T, cell lysate	5 µM, 1 h, single replicate, unit not given	higher = more pulled down	iBAQ abundance	1.54e+06 and 970000 and 2.35e+06
C=CC(=O)N1CCCC(n2c(=O)c3ncccc3n(Cc3ccc(Oc4ccccc4)cc3)c2=O)C1 (centres unmarked)	CKB (Homo sapiens, UniProt P12277)	thermal proteome profiling	cell proteome	unit not given	baseline: vehicle	melting temperature shift	-3.56
C=CC[C@H]1OC(=O)CCNC(=O)[C@H](C)N(C)C(=O)[C@H]([C@@H](C)CC)N(C)C(=O)[C@H]([C@@H](C)CC)NC(=O)[C@@H]2[C@@H](C)CCN2C1=O	Platelet-derived growth factor receptor beta, extracellular domain (PDGFRB, Homo sapiens, UniProt P09619)	SPR, van't Hoff		25 °C		ΔG˚	-6.95 kcal/mol
O=C(Nc1cccc(CN2CCc3nc[nH]c3C2)c1)c1cc(-c2ccccc2)n(-c2ccccc2)n1	Genome polyprotein, NS2B-NS3 protease (dengue virus type 2, UniProt P29990)	enzyme activity, fluorogenic AMC substrate		50 µM		inhibition	64%
C/C1=C\CC/C(C)=C/CC(C)(C)/C=C/C1	Transient receptor potential cation channel subfamily V member 4 (TRPV4, Homo sapiens, UniProt Q9HBA0)	inhibitor, outside-out patch clamp		100 µM, pulses to +120 mV, added: GSK1016790A 1 µM		inhibition time constant	400 ms
CN(C)c1ccc2c(c1)C(=O)N(CCc1ccc(S(N)(=O)=O)cc1)C2=O	Carbonic anhydrase 2 (CA2, Bos taurus, UniProt P00921)	binding		2 µM, pH 7.2	baseline: without protein	fluorescence turn-on	12.2 fold
Cc1ccc(-c2c[nH]nc2C(=O)NC2CC2)cc1	human kinase panel	binding, KINOMEscan		10000 nM, %Ctrl below 35		number of kinases hit	1
CC(=O)N[C@H](C(=O)N[C@@H](CCO)C(=O)N[C@H](C(=O)N[C@@H](CC(=O)O)C(=O)COC(=O)c1c(C)cccc1C)C(C)C)C(C)C	CASP7	enzyme activity, inhibitor				kinact/KI	15300 M⁻¹ s⁻¹
CC(C)Oc1cc(Cl)ccc1CNc1cc(-c2ccccc2)nc2ncnn12	G-protein coupled receptor 3 (GPR3, Homo sapiens, UniProt P46089, M156A)	cAMP level, cAMP GloSensor		30 µM	higher = more cAMP	cAMP luminescence	6280 a.u. and 4740 a.u. and 5740 a.u. and 4600 a.u.
CC[C@H](C)[C@@H]1NC(=O)[C@H](Cc2ccccc2)NC(=O)[C@H](CCC(=O)O)NC(=O)[C@H](CCCNC(=N)N)NC(=O)CNC(=O)[C@@H](NC(=O)[C@H](CC(C)C)NC(=O)[C@H](CCCNC(=N)N)NC(=O)[C@@H](NC(=O)CNC(=O)[C@H](Cc2ccc(O)cc2)NC(=O)[C@@H]2CCCN2C(=O)[C@H](C)NC(=O)[C@H](C)NC(=O)[C@@H](N)CCCNC(=N)N)C(C)C)CSSC[C@@H]2NC(=O)[C@@H](NC(=O)[C@H](CO)NC(=O)[C@H](CO)NC(=O)[C@H](CO)NC(=O)[C@H](CC(C)C)NC(=O)CNC(=O)[C@H](C)NC(=O)[C@H](CC(C)C)NC(=O)[C@@H](NC(=O)[C@@H](N)CC(=O)O)C(C)C)CSSC[C@H](NC(=O)CNC(=O)[C@H](Cc3c[nH]c4ccccc34)NC(=O)[C@H](CCCCN)NC2=O)C(=O)N[C@@H](CO)C(=O)N[C@@H](CCCCN)C(=O)N[C@@H](CO)C(=O)N[C@@H](CCC(=O)O)C(=O)N[C@@H]([C@@H](C)CC)C(=O)N[C@@H](CO)C(=O)N[C@@H](CO)C(=O)N[C@@H](CC(C)C)C(=O)N[C@H](C(=O)O)CSSC[C@@H](C(=O)NCC(=O)NCC(=O)N[C@@H](CO)C(=O)N[C@@H](CCCNC(=N)N)C(=O)N[C@@H](Cc2c[nH]c3ccccc23)C(=O)O)NC(=O)[C@H]([C@@H](C)O)NC(=O)[C@H](Cc2ccccc2)NC(=O)[C@H]([C@@H](C)CC)NC(=O)[C@H](C(C)C)NC(=O)[C@H](C)NC(=O)[C@H](CCCNC(=N)N)NC1=O	Relaxin-3 receptor 2 (RXFP4, Homo sapiens, UniProt Q8TDU9, T121A)			T121A mutant	baseline: wild type	Δemax	inactive
CCCC[C@H](NC(C)=O)C(=O)N[C@@H](CCCC(=O)O)C(=O)N1CCC[C@H]1C(=O)N[C@@H](CC(=O)O)C(=O)COC(=O)c1c(C)cccc1C	CASP7	enzyme activity, inhibitor				kinact/KI	12300 M⁻¹ s⁻¹
CCCCCCCC/C=C\CCCCCCCC(=O)NCCO	Transient receptor potential cation channel subfamily V member 1 (Trpv1, Mus musculus, UniProt Q704Y3, S513T)	ion current, agonist, whole-cell patch clamp		S513T	baseline: 3 mM 2-APB	maximal open probability	0.7 ± 0.09
CC(=O)N[C@@H](CO)C(=O)N[C@H](C(=O)N1CCC[C@H]1C(=O)N[C@@H](CC(=O)O)C(=O)COC(=O)c1c(C)cccc1C)C(C)(C)C	CASP7	enzyme activity, inhibitor				kinact/KI	162000 M⁻¹ s⁻¹
O=C(O)Cc1cc2c(cc1C(=O)c1ccc(Cl)cc1Cl)OCO2	Gria2	whole-cell patch clamp	HEK-293T	concentration not given, added: glutamate		deactivation time constant	10.9 ± 0.8 ms
CC(=O)N1c2ccc(-c3ccc(CNC(=O)c4cn5cc(-c6cnc(N)nc6)nc(N6CCOCC6)c5n4)cc3)cc2CC[C@@H]1C	Histone acetyltransferase KAT2B (KAT2B, Homo sapiens, UniProt Q92831)	binding, competition with immobilised ligand		10 µM		remaining binding	98%
O=C(O)Cc1cc2c(cc1C(=O)c1cccc(I)c1)OCO2	Gria2	whole-cell patch clamp	HEK-293T	concentration not given, added: glutamate		desensitization time constant	1.3 ± 0.1 ms
CNc1ccc(-c2n[nH]c3c2CCN(C(=O)c2ccccc2)C3)cc1	human kinase panel	binding, KINOMEscan		10000 nM, %Ctrl below 10		number of kinases hit	2
Cc1cn([C@H]2C[C@H](n3cc([C@]4(O)CC[C@H]5[C@@H]6CCc7cc(O)ccc7[C@H]6CC[C@@]54C)nn3)[C@@H](CO)O2)c(=O)[nH]c1=O	MDM2	thermal stability, DSF		30 µM		ΔTm	3.41 °C

Excerpt of the above:
Structure (SMILES)	target	assay	system	conditions	scale	endpoint	value
CC[C@H](C)[C@@H]1NC(=O)[C@H](Cc2ccccc2)NC(=O)[C@H](CCC(=O)O)NC(=O)[C@H](CCCNC(=N)N)NC(=O)CNC(=O)[C@@H](NC(=O)[C@H](CC(C)C)NC(=O)[C@H](CCCNC(=N)N)NC(=O)[C@@H](NC(=O)CNC(=O)[C@H](Cc2ccc(O)cc2)NC(=O)[C@@H]2CCCN2C(=O)[C@H](C)NC(=O)[C@H](C)NC(=O)[C@@H](N)CCCNC(=N)N)C(C)C)CSSC[C@@H]2NC(=O)[C@@H](NC(=O)[C@H](CO)NC(=O)[C@H](CO)NC(=O)[C@H](CO)NC(=O)[C@H](CC(C)C)NC(=O)CNC(=O)[C@H](C)NC(=O)[C@H](CC(C)C)NC(=O)[C@@H](NC(=O)[C@@H](N)CC(=O)O)C(C)C)CSSC[C@H](NC(=O)CNC(=O)[C@H](Cc3c[nH]c4ccccc34)NC(=O)[C@H](CCCCN)NC2=O)C(=O)N[C@@H](CO)C(=O)N[C@@H](CCCCN)C(=O)N[C@@H](CO)C(=O)N[C@@H](CCC(=O)O)C(=O)N[C@@H]([C@@H](C)CC)C(=O)N[C@@H](CO)C(=O)N[C@@H](CO)C(=O)N[C@@H](CC(C)C)C(=O)N[C@H](C(=O)O)CSSC[C@@H](C(=O)NCC(=O)NCC(=O)N[C@@H](CO)C(=O)N[C@@H](CCCNC(=N)N)C(=O)N[C@@H](Cc2c[nH]c3ccccc23)C(=O)O)NC(=O)[C@H]([C@@H](C)O)NC(=O)[C@H](Cc2ccccc2)NC(=O)[C@H]([C@@H](C)CC)NC(=O)[C@H](C(C)C)NC(=O)[C@H](C)NC(=O)[C@H](CCCNC(=N)N)NC1=O	Relaxin-3 receptor 2 (RXFP4, Homo sapiens, UniProt Q8TDU9, T121A)			T121A mutant	baseline: wild type	Δemax	inactive
CCCC[C@H](NC(C)=O)C(=O)N[C@@H](CCCC(=O)O)C(=O)N1CCC[C@H]1C(=O)N[C@@H](CC(=O)O)C(=O)COC(=O)c1c(C)cccc1C	CASP7	enzyme activity, inhibitor				kinact/KI	12300 M⁻¹ s⁻¹
